Assay results from different studies.
Values joined by “and” are separate records of one study, mostly repeats; a detail may differ. ± gives the spread as reported.
Chain of UniProt P10632 (whole entry, looked up): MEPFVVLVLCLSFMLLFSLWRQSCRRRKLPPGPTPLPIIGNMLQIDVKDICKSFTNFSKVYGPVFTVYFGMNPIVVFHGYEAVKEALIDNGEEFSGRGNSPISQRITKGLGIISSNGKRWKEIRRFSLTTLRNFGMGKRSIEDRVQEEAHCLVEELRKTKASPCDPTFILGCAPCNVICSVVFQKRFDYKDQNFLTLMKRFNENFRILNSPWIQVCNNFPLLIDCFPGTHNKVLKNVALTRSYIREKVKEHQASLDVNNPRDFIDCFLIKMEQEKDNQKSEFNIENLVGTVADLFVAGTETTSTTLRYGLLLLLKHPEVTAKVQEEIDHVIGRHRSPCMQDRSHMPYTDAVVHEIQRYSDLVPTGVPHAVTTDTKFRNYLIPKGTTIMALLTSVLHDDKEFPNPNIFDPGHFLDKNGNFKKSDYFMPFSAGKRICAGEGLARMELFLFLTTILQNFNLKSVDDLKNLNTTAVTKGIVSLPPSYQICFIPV

COc1cc(O)ccc1CCC(c1ccc(O)cc1)c1cc2c(c(C)c1O)OC(c1ccc(O)cc1)CC2 (mixture of isomers)
arachidonic acid level (human blood; 10 µM, together with: A23187): 105000 ± 16900 pg/mL

OCc1ccc(C2NCCc3cc(O)c(O)cc32)o1 (stereo not drawn)
Fe2+ chelation (ferrozine; cell-free; 100 µM, DMSO solvent): 92.38 ± 0.33%

C=CC(=O)Nc1cccc(Cn2ncc3cnc(Nc4cnn(CCOC)c4)nc32)c1
percent of control (EIF2AK1 human; binding, KINOMEscan; 100 nM; lower = stronger binding): 85%

CC(CCC(=O)NCc1ccc(C(=O)NO)cc1)C1CCC2C3C(O)CC4CC(O)CCC4(C)C3CCC12C (stereo not drawn)
relative abundance (refers to: CA; PCK rat (Pkhd1 mutant), liver; oral gavage, dose not given, 5 months; baseline: total bile acids): 1.88%

COc1cc2c(NC3CCN(C(C)C)CC3)cc(N3CCOCC3)nc2cc1OCCCN1CCCC1
log2 fold change (TMT proteomics, refers to: SCG2; 5xFAD mouse, hippocampus; dose not given; baseline: untreated 5xFAD): 0.249

CC(=O)[O-].O.[Cu+2].[O-]c1ccc(Br)cc1C=NCCN1CCOCC1
inhibition (nitric oxide scavenging; 120 µM): 29.3%

CCCCCCC(CSS(=O)(=O)O)NCC(C)C (stereo not drawn)
spleen weight decrease (Swiss Webster mice, Schistosoma mansoni infected; 100 mg/kg; baseline: vehicle control): 8%

Cc1ncsc1-c1ccc(C(C)NC(=O)C2CC(O)CN2C(=O)C(NC(=O)CCCCCCCCCCN2CCCC(Nc3ncc(Cl)c(Nc4ccccc4S(=O)(=O)C(C)C)n3)C2)C(C)(C)C)cc1 (stereo not drawn)
log2 fold change (22Rv1; RNA-seq, refers to: SIPA1L3 mRNA; concentration not given; baseline: DMSO): -1.04

COC1CN([C@H]2CC[C@H]([C@@]3(C)Oc4c(Cl)cc(C(=O)NCc5c(SC)cc(C)[nH]c5=O)c(C)c4O3)CC2)C1
log2 fold change (RNA-seq, refers to: MTERF2 mouse homolog; mouse, HT-1376 xenograft, whole blood; dose not given; baseline: vehicle): 0.777

CN1CCCNC(=O)c2cccc(c2)C(=O)NCCCN(C)CCCNc2cccc3c2C(=O)c2cccc(c2C3=O)NCCC1
log2 fold change (SAS; RNA-seq, refers to: TMEM44-AS1 mRNA; 1 µM, 6 h; baseline: untreated cells): 1.23

CCC(CC)n1c(Cc2cccs2)nc2cc(C(=O)N[C@@H](CC(=O)O)c3ccccc3)ccc21
body weight (mouse, HFpEF model (HFD plus L-NAME); ip, 20 mg/kg/day, 2 wk): decreased

CNS(=O)(=O)Nc1nccc(Cc2c(C)c3ccc(Oc4ncccc4F)cc3oc2=O)c1F
IC50 (HEL; cell viability; 7 days): > 1 µM

CCOC(=O)CCCCC1NCCc2ccc(O)c(O)c21 (stereo not drawn)
Fe2+ chelation (ferrozine; cell-free; 100 µM, DMSO solvent): 94.97 ± 0.93%

Nc1nc2cnc(C(=O)N3CCOC[C@@H]3c3ccc(C(F)(F)F)cc3)cc2c2c1COC2
inhibition (ELISA, refers to: SDMA; mouse, HCT-116 MTAP wild type xenograft, tumour; oral, 30 mg/kg once daily; baseline: vehicle): 56%

CN1CCC[C@]1(C)/C=C/S(=O)(=O)NC(=O)Nc1c2c(cc3c1CCC3)CCC2
IL-1β inhibition (human, whole blood ex vivo; 50 mg twice daily, day 14, 3 h, multiple ascending dose, together with: LPS and ATP): 99.4%

COc1ccc(C([O-])=CC(=O)c2ccc(C(C)(C)C)cc2)cc1.[Ru+2].c1ccc(-c2ccccn2)nc1.c1ccc(-c2ccccn2)nc1
relaxed circular DNA increase (gel electrophoresis; pUC19 plasmid DNA; no light; baseline: no compound): 45 to 50%

COCCOCCOCCNC(=O)Cc1cc(CC(=O)N[C@H]2C[C@H]3C(=O)Nc4cc(OCCOCCOCCOC)cc(n4)C(=O)N4CCC[C@H]4C(=O)Nc4cc(OCCOCCOCCOC)cc(n4)C(=O)N4CCC[C@H]4C(=O)Nc4cc(OCCOCCOCCOC)cc(n4)C(=O)N3C2)cc(CC(=O)N[C@H]2C[C@H]3C(=O)Nc4cc(OCCOCCOCCOC)cc(n4)C(=O)N4CCC[C@H]4C(=O)Nc4cc(OCCOCCOCCOC)cc(n4)C(=O)N4CCC[C@H]4C(=O)Nc4cc(OCCOCCOCCOC)cc(n4)C(=O)N3C2)c1
ΔG (anion binding, ITC; water/methanol 95 vol% (97.7 mol%); 298 K, together with: sodium iodide): -5.091 ± 0.0478 kcal/mol

CCC(=O)N[C@@H](C)C(=O)OCC(=O)N[C@@H](C)C(=O)O
chain scission rate constant (water; pH 4, 25 °C): 0.0004 h⁻¹

CC(=O)n1cc([C@H]2C=C(C(=O)N3CCN(Cc4ccc5c(c4)OCO5)CC3)O[C@@H](OCc3ccc(CO)cc3)C2)c2ccccc21
translation activity (Trypanosoma cruzi; reporter mRNA translation, inhibitor, refers to: Renilla luciferase mRNA; cell-free extract; concentration not given, test 1; baseline: positive over negative control): 56.2%

COC1OC(C)C(OC2OC(C)C(O)C(OC3OC(C)C(O)C(OS(=O)(=O)O)C3OS(=O)(=O)O)C2OS(=O)(=O)O)C(OS(=O)(=O)O)C1OS(=O)(=O)O (stereo not drawn)
APTT prolongation (human plasma; 128 µg/mL; baseline: control): 1.1 fold

CCCC[C@@H](CSS(=O)(=O)O)NC(C)C
spleen weight (Swiss Webster mice, Schistosoma mansoni-infected; 100 mg/kg, perfusion day 57 post-infection): 0.6 g

N[C@@H](CNC(=O)N[C@@H](CS)C(=O)NCC(=O)O)C(=O)O
GFAP immunoreactivity (mouse C57BL/6, Aβ i.c.v. model, somatosensory cortex S1BF; intranasal, dose not given): 10.5 ± 0.5 % area

Nc1ncc(-c2cc(-c3cnn(CC(F)(F)F)c3)ncc2F)nc1C(=O)NC1CNCC(F)C1 (stereo not drawn)
remaining binding (MKK7; KINOMEscan; 1 µM; baseline: DMSO control): 100%

COC1OC(C)C(OS(=O)(=O)O)C(OC2OC(C)C(OS(=O)(=O)O)C(OC3OC(C)C(OS(=O)(=O)O)C(OS(=O)(=O)O)C3OS(=O)(=O)O)C2OS(=O)(=O)O)C1OS(=O)(=O)O (stereo not drawn)
APTT prolongation (human plasma; 128 µg/mL; baseline: control): 1.7 fold

COc1cnc2cccc(N3CCc4c(cc(Cn5ccnc5)cc4-c4cn(C)nc4C(F)(F)F)C3=O)c2c1
tumour volume (BALB/c nude mice, MV4-11 xenograft; intraperitoneal, 100 mg/kg, day 21): 92 mm3 and 145 mm3 and 128 mm3 and 155 mm3 and 172 mm3 and 142 mm3

COC1OC(C)C(OC2OC(C)C(OS(=O)(=O)O)C(OC3OC(C)C(OC4OC(C)C(OS(=O)(=O)O)C(OC5OC(C)C(OC6OC(C)C(OS(=O)(=O)O)C(OC7OC(C)C(OC8OC(C)C(OS(=O)(=O)O)C(OC9OC(C)C(OC%10OC(C)C(OS(=O)(=O)O)C(OC%11OC(C)C(OC%12OC(C)C(OS(=O)(=O)O)C(OS(=O)(=O)O)C%12O)C(OS(=O)(=O)O)C%11O)C%10O)C(OS(=O)(=O)O)C9O)C8O)C(OS(=O)(=O)O)C7O)C6O)C(OS(=O)(=O)O)C5O)C4O)C(OS(=O)(=O)O)C3O)C2O)C(OS(=O)(=O)O)C1O (stereo not drawn)
APTT prolongation (human plasma; 128 µg/mL; baseline: control): 1.5 fold

Cc1cnc2nc1Nc1cccc(c1)COC/C=C/COCc1cc(ccc1OCCN1CCOCC1)N2
spleen weight (BALB/c mice rhEPO-induced polycythemia; 100 mg/kg): 0.141 g and 0.158 g and 0.148 g and 0.144 g and 0.15 g and 0.134 g

COC1OC(C)C(O)C(OC2OC(C)C(O)C(OC3OC(C)C(O)C(OC4OC(C)C(O)C(OC5OC(C)C(O)C(OC6OC(C)C(O)C(OC7OC(C)C(O)C(OC8OC(C)C(O)C(OS(=O)(=O)O)C8OS(=O)(=O)O)C7OS(=O)(=O)O)C6OS(=O)(=O)O)C5OS(=O)(=O)O)C4OS(=O)(=O)O)C3OS(=O)(=O)O)C2OS(=O)(=O)O)C1OS(=O)(=O)O (stereo not drawn)
APTT prolongation (human plasma; 128 µg/mL; baseline: control): 1.3 fold

COc1ccc(NC(=O)c2ccc3[nH]c(-c4ccc(N(C)C)cc4)nc3c2)cn1
tumour volume (Lewis lung carcinoma, mice, syngeneic graft, subcutaneous; intraperitoneal, 25 mg/kg daily, day 10): 688 mm3 and 545 mm3 and 1410 mm3 and 1710 mm3

COc1ccc(S(=O)(=O)N2CCc3ccccc3C2)cc1N1CCN(C(=O)c2ccc(F)cc2C(F)(F)F)CC1
TH-immunoreactive cell count (CNN cell counting, refers to: tyrosine hydroxylase; rat, 6-OHDA lesion model, substantia nigra pars compacta, lesioned side; 0.3 µg/24 h): 193 ± 42.5

O=Cc1cc(C(F)(F)F)ccc1B(O)O
pseudo-first-order rate constant (HPLC-MS; pH 10.2, together with: 50 mM N-α-acetyl-lysine): 0 h⁻¹

CC(C)(O)c1ncc([S@](N)(=O)=NC(=O)Nc2c3c(cc4c2CCC4)CCC3)s1
subjects with adverse events (refers to: nervous system disorders; healthy human volunteers; oral, 600 mg single dose, spray-dried dispersion): 83%

CNC(=O)C1CCCN(C(=O)C2CC3CCC2N3C(=O)[C@@H]2C[C@@H](O)CN2C(=O)NCc2cccc(Cl)c2F)C1 (mixture of isomers)
remaining activity (Cytochrome P450 2C8 (CYP2C8, Homo sapiens, UniProt P10632); preincubation with NADPH; human; 50 µM; baseline: negative control): 95.7% and 89.4% and 83.2%

COC1OC(C)C(OC2OC(C)C(OS(=O)(=O)O)C(OC3OC(C)C(OC4OC(C)C(OS(=O)(=O)O)C(OC5OC(C)C(OC6OC(C)C(OS(=O)(=O)O)C(OC7OC(C)C(OC8OC(C)C(OS(=O)(=O)O)C(OC9OC(C)C(OC%10OC(C)C(OS(=O)(=O)O)C(OS(=O)(=O)O)C%10O)C(OS(=O)(=O)O)C9O)C8O)C(OS(=O)(=O)O)C7O)C6O)C(OS(=O)(=O)O)C5O)C4O)C(OS(=O)(=O)O)C3O)C2O)C(OS(=O)(=O)O)C1O (stereo not drawn)
APTT prolongation (human plasma; 128 µg/mL; baseline: control): 1.3 fold

CCCCCCCCCCCCCCCC(=O)OCC(CSC[C@H](N)C(=O)N[C@@H](CO)C(=O)N[C@@H](CCCCN)C(=O)N[C@@H](CCCCN)C(=O)N[C@@H](CCCCN)C(=O)N[C@@H](CCCCN)C(=O)NCCCCCC(=O)N[C@@H](CCCCN)C(=O)N[C@@H](CC(C)C)C(=O)N[C@H](C(=O)N[C@@H](Cc1ccccc1)C(=O)N[C@@H](Cc1ccccc1)C(=O)N[C@@H](Cc1ccc2ccccc2c1)C(=O)O)C(C)C)OC(=O)CCCCCCCCCCCCCCC (stereo partly drawn)
OC+ TS- area (OC antibody staining; APP/PS1 transgenic mouse, cortex; intracortical injection, dose not given, 5 d): 8.54% and 15.4% and 6.08% and 7.31%

CC(C)=CCCC(C)CN(C)CCc1ccccn1 (stereo not drawn)
translation activity (Trypanosoma cruzi; reporter mRNA translation, inhibitor, refers to: Renilla luciferase mRNA; cell-free extract; concentration not given, test 1; baseline: positive over negative control): 104%

O=C(N[C@@H](Cc1ccc(OCCCCC2CCNCC2)cc1)C(=O)O)c1nc2ccccc2o1.O=C(O)C(F)(F)F
clot retraction velocity (human, platelet-rich plasma; 15 µM, together with: thrombin): 0.00564 min⁻¹ and 0.0101 min⁻¹ and 0.00522 min⁻¹

COC1OC(C)C(OC2OC(C)C(OS(=O)(=O)O)C(OC3OC(C)C(OC4OC(C)C(OS(=O)(=O)O)C(OC5OC(C)C(OS(=O)(=O)O)C(OS(=O)(=O)O)C5O)C4O)C(OS(=O)(=O)O)C3O)C2O)C(OS(=O)(=O)O)C1O (stereo not drawn)
APTT prolongation (human plasma; 128 µg/mL; baseline: control): 1.1 fold

COC(=O)C1CN1S(=O)(=O)c1ccc2cc(C)ccc2c1 (stereo not drawn)
tumour growth inhibition (mouse, Lewis lung carcinoma; ip, 100 mg/kg, 312 h): 50%
